Results gathered from unrelated publications.
A part holds a random share of what one study measured. Changes are numbered by the printed parent chain.

Sample 1 — target: CCND1, cyclin fold, Cln2 fusion (human); method: yeast growth competition, sequencing; sample: yeast; setting: weak parent motif; relative to: not given; direction: higher = stronger binding
Starting sequence: CDC25A docking peptide (human); PPHRRRLLFACSP; partner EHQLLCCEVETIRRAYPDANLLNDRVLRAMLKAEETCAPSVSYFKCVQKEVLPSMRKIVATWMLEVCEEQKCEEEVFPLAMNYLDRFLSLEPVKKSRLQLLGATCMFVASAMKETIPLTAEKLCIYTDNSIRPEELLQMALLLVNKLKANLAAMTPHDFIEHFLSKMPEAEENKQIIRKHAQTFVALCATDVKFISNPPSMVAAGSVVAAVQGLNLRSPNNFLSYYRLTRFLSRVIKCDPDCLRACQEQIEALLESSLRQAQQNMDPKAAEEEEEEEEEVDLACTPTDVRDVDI
`F9N`: “normalised enrichment score” -0.0301.
Under “normalised enrichment score”, `F9W` is recorded as 0.328.
For `L8P`, “normalised enrichment score” read -0.451.
Under “normalised enrichment score”, `R6S` is recorded as -0.158.
For `L7N`, “normalised enrichment score” read -0.0519.
`P1N`: “normalised enrichment score” 0.0312.
`F9T`: “normalised enrichment score” 0.0328.
Under “normalised enrichment score”, `P13H` is recorded as 0.353.
For `H3D`, “normalised enrichment score” read 0.5.
For `A10Y`, “normalised enrichment score” read -0.272.
For `L7A`, “normalised enrichment score” read 0.344.
`H3F` — result for “normalised enrichment score”: 0.546.
`L8C` — result for “normalised enrichment score”: -0.204.
`P1I` — result for “normalised enrichment score”: 0.181.
Under “normalised enrichment score”, `P1D` is recorded as -0.0856.
`L7C`: “normalised enrichment score” 0.0865.
Under “normalised enrichment score”, `P13K` is recorded as -0.174.

Sample 2 — method: RNA Bind-n-Seq; form: RNA; sample: in vitro; concentration: 365 nM; relative to: no-protein control; direction: higher = stronger binding
Target: RNA binding protein fox-1 homolog 2, RRM domain, GST-SBP tag (RBFOX2, Homo sapiens, UniProt O43251-10, residues 100-194)
Setting: natural RNA segment, single round, ends assumed
Constant ends, left off below: GGGAGUUCUACAGUCCGACGAUC … UGGAAUUCUCGGGUGCCAA
`UUUACAAAUCAUAAUCAACAGAGCCCCAGGGGCAAAAUAGACAUUCUAUUUGUCAGCUGUUGCUGCUGAGCCUGCUGGUGAACACCAUUGCAAGCAGUUGCUGAGCCUGC`: “RBNS enrichment (R)” 1.17.
Under “RBNS enrichment (R)”, `UUAGGACAGUGGUCACUUUCUAGUUGCCGUCUUCACAGACAAACUUGAAAGGUAUUAAGGAAAAAAUUCCACAUAGCUCUGGGCCUUUUUUGUAUUCUGAUUGCCACGUU` is recorded as 0.395.
For `UUUUGGACUCACGUAAUGUAGAAUGCAAAGUUUAGUGAUUAUUUAAUCUGGGCCUAAGCUAGUGAGAGUAUGGAACAAUGGCCCAUAAGGACUCCUAAGCGCCGAAGCCA`, “RBNS enrichment (R)” read 1.15.
`UUGCCAGGUAGAUAAAACUGACAUAGAGAAAAGGCUGGAGAGAGAUUCUGUUGCAUAGACUAGUCCUAUGGAAAAAACCAAGCUUCGUUAGAAUGUCUGCCUUACUGGUU`: “RBNS enrichment (R)” 1.37.
`UAUUGUGUAGACCUUGAAAACCACGGUUUCAGUGAAGAAGGAUUCUGUAGGGUUCACUCUUCUGCAGUCACUUUAGCUUUCUGCAGAAGUCUAGAUUUUAAAUUAACUGU`: “RBNS enrichment (R)” 0.426.
Under “RBNS enrichment (R)”, `AAAGCAGAUUACAGAAAUGUAAGUCAACUUAAGAACGGUGAAUGAAUGUAAAAACAUUCAGUUGAGACCAUAUGCAUUUUCUGUGCUGUUUGUACUUGAGGUAUGUAACA` is recorded as 0.44.
For `CUGCAUCCUCGUGGCAAAAUUCUGUAUUCUUAGUGAUUGUUACAAACCCCUUUAUUGCUGUCUGAGAAAGUGAAAGAUUGUGUAUUUCUAUUAAAACAUUUACAAUCAAA`, “RBNS enrichment (R)” read 1.15.
`GCUAUCAUGGUUGUGUUAAUCGAUUGUGGGGAUGAAAUGUCAUUGUGUAUGGAAGGCGGGGCUCAUGGCUGAUUGGCAAUAAAAUGGCGGCUGCCGUUGUCAUUGUCUCC`: “RBNS enrichment (R)” 0.979.

Sample 3 — method: RNA Bind-n-Seq; form: RNA; sample: in vitro; concentration: 100 nM; relative to: input RNA pool; direction: higher = stronger binding
Target: RING finger protein unkempt homolog, zinc fingers 1-6, SBP tag (UNK, Homo sapiens, UniProt Q9C0B0, residues 30-357)
UniProt Q9C0B0, sequence (30-357, looked up): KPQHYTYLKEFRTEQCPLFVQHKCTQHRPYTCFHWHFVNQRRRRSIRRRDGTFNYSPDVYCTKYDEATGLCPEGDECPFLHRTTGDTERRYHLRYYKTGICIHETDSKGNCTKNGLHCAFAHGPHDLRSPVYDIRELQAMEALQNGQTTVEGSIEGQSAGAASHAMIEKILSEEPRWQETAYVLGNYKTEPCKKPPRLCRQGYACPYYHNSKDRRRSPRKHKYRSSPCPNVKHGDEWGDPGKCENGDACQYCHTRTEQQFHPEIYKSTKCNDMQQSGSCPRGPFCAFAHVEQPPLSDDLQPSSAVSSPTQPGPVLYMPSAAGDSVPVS
Setting: RNA with constant flanks, vertebrate orthologous sites, ends assumed
Constant ends, left off below: GGGAGUUCUACAGUCCGACGAUC … CAACAGAGGAUUGAGCAUCA
`AGGAAAUGCUGGCUGCAAACCCUCAGGAUCGUCCAGAUGCUUUUGAACUAGAACUCAGAUUAGUACAAAUUGCAUUUAAAGAUAGCAGCUGGGAAACGUGACACAUACAUUAUUUGCAAA` has a bound/input enrichment of 0.83 ratio.
`CCUCUUAAUCCCAUCUCUUCAGUUUCAUAGUGCUGCAGUAUUACCUUCAAUUGUAUCUUUGGUGGACUUAUUUUUAAUUCUAGGGAAACUUCCAGUGUGGAUACUGUGAGCUAGAUGGAG` has a bound/input enrichment of 0.927 ratio.
`CAUGAUCUUGUUACUGUGAUAUUUUAAAUAUCCACAGUACUCACUUUUUCCAAAUGAUCCUAGUAAUUGCCUAGAAAUAUCUUUCUCUUACCUGUUAUUUAUCAAUUUUUCCCAGUAUUU` gave a bound/input enrichment of 1.23 ratio.
With `UGAUCAUAUGUAGAGAAAAAUUUUCAUUGACCUCCUUGUGAAAUUCCCUAGCAGUUUAUUUAGAAUCUUAAUUUUUCUAAUACAAGUUUACUUCUUAGUCAUUUUAGCCCAUAAUUAAAA` the bound/input enrichment was 2.04 ratio.
With `UUGGAACCAGCUCUCCAAAUAGGAAUAGUAGUAAAAAAAGUAAACAAAAUGAUAAUUGUACAGAAAAAACAGAAGCGAAAUCAUGUAAAGUAAAUGCUGCUGGUGUUCUAGGCCCUAAAG` the bound/input enrichment was 1.52 ratio.
The bound/input enrichment of `ACUGUUGUUAAGCACUGUGUUCCAGACCGUGUCUGACUUAGUGUAACCUAGGAGAUUUUAUAGUUUUAUUUUAAUGAAACCCUAAUUGACGCACAGCAGUGGGGAGAACAGCGUCUUUUA` is reported as 2.34 ratio.
With `CCUGUGAGCGUCUACAGACAGCUCACCAUUUUUGUCCUGUAUCUGUAAACACUUUCUGUUUAGUCUUUUUCUUGUAAAGUUGAUGUUCUUUAAAAUCGUUAAUGUAUCACAGGGCUUAUG` the bound/input enrichment was 0.584 ratio.
`AAACCCCGAUUUUAGACGUGCUAUCAAGGCUUUCAUUCCAGUUUGUUUUGUCUUCUUGUUUAGAUACCAAUCUUUUAAAUUCUUGCAUUUUAGUAAGAAAGCUACGUUUUUAUGGAUGUU` gave a bound/input enrichment of 0.832 ratio.

Sample 4 — method: protein binding microarray; form: double-stranded DNA, one strand shown; sample: in vitro; concentration: not given; relative to: not given; direction: higher = stronger binding
Target: Histone acetyltransferase KAT6A, both winged helices, GST fusion (KAT6A, Homo sapiens, UniProt Q92794, residues 1-181)
Setting: 8-mer, flanks averaged, mean of 2 arrays, mostly near background
Target sequence (chain): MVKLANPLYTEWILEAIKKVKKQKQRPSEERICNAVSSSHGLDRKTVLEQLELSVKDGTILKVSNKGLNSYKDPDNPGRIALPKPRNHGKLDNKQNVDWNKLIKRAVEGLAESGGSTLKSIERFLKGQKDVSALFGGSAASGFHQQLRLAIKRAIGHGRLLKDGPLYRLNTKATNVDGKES
`CCAGAACA` has an E-score of -0.208.
`AACGTCGT` has an E-score of 0.17.
`TAGACGCA` gave an E-score of 0.102.
The E-score of `GAGGCCTA` is reported as -0.167.
For `ACTGATTC`, the E-score was -0.0169.
With `AGGTGAAC` the E-score was -0.0776.
The E-score of `CGAAACAA` is reported as 0.0131.
`AGCAAGAT` has an E-score of -0.252.
`GGGTCCAC` has an E-score of -0.000395.
With `GACTCAAC` the E-score was 0.0716.
With `ACCATGAC` the E-score was 0.0324.
For `ACCACAGT`, the E-score was -0.116.
`GAAGGGAC` gave an E-score of -0.0988.
For `GGAAAACA`, the E-score was -0.0434.
For `AACTCGGG`, the E-score was 0.0778.
`GAACGGAA` has an E-score of 0.193.
The E-score of `AGCCGTAC` is reported as 0.275.
With `CCTAGGTC` the E-score was -0.122.
With `ACCCCTAC` the E-score was -0.253.
`GTAATGAA` gave an E-score of 0.097.
With `ACTCAGTG` the E-score was -0.153.
The E-score of `AGGACGGA` is reported as 0.137.
`GGTTCATA` gave an E-score of 0.0688.
With `GCGGACGC` the E-score was 0.269.
For `CTGACCCC`, the E-score was -0.119.

Mixed results
For `PhoQ, residues 284 288 289 292 302 303 QWGLFV`, the fold induction was 6.4 (PhoP, residues 12 14 15 18 19 VQALL (Escherichia coli, UniProt P23836); Sort-seq, measured: YFP reporter; E. coli; PhoQ-PhoP variant library, added: 10 µM Mg2+; relative to: high Mg2+ state, higher = stronger signaling).

Repeated from above (sample 2):
For `UUUUGGACUCACGUAAUGUAGAAUGCAAAGUUUAGUGAUUAUUUAAUCUGGGCCUAAGCUAGUGAGAGUAUGGAACAAUGGCCCAUAAGGACUCCUAAGCGCCGAAGCCA`, “RBNS enrichment (R)” read 1.15.
`UUGCCAGGUAGAUAAAACUGACAUAGAGAAAAGGCUGGAGAGAGAUUCUGUUGCAUAGACUAGUCCUAUGGAAAAAACCAAGCUUCGUUAGAAUGUCUGCCUUACUGGUU`: “RBNS enrichment (R)” 1.37.
`UAUUGUGUAGACCUUGAAAACCACGGUUUCAGUGAAGAAGGAUUCUGUAGGGUUCACUCUUCUGCAGUCACUUUAGCUUUCUGCAGAAGUCUAGAUUUUAAAUUAACUGU`: “RBNS enrichment (R)” 0.426.
Under “RBNS enrichment (R)”, `AAAGCAGAUUACAGAAAUGUAAGUCAACUUAAGAACGGUGAAUGAAUGUAAAAACAUUCAGUUGAGACCAUAUGCAUUUUCUGUGCUGUUUGUACUUGAGGUAUGUAACA` is recorded as 0.44.
For `CUGCAUCCUCGUGGCAAAAUUCUGUAUUCUUAGUGAUUGUUACAAACCCCUUUAUUGCUGUCUGAGAAAGUGAAAGAUUGUGUAUUUCUAUUAAAACAUUUACAAUCAAA`, “RBNS enrichment (R)” read 1.15.
`GCUAUCAUGGUUGUGUUAAUCGAUUGUGGGGAUGAAAUGUCAUUGUGUAUGGAAGGCGGGGCUCAUGGCUGAUUGGCAAUAAAAUGGCGGCUGCCGUUGUCAUUGUCUCC`: “RBNS enrichment (R)” 0.979.
